Results gathered from unrelated publications.
Lines come from different studies, so protocols differ. Numbers after ± are the reported error.

`COc1ccc(F)cc1C(=O)NCc1ccc(-c2nn([C@@H](C)C(F)(F)F)c(N)c2C(N)=O)cc1`: “tumour growth inhibition” 76% (TMD8, mouse xenograft; oral, 15 mg/kg twice daily, day 14, 336 h).
For `C[C@@H]1COCCN1c1cc([C@]2(O)C[C@H]3CC[C@@H](C2)O3)c2cnn(-c3cc[nH]n3)c2n1`, “tumour growth inhibition” read 83.8 ± 2.4% (Granta-519 xenograft, mouse; 30 mg/kg QD x3, day 20).
`COCc1cc(C(=O)Nc2cc([C@H]3CC[C@@H](OC(=O)NC(C)C)C3)[nH]n2)n(C)n1`: “tumour growth inhibition” 85% (OVCAR-3 xenograft, NSG mouse; oral twice daily, highest dose of escalation).
`Nc1nnc(-c2ccccc2O)cc1N1CCN(Cc2ccc(OCCOCCNc3cccc4c3C(=O)N(C3CCC(=O)NC3=O)C4=O)c(F)c2)CC1` (stereo not drawn): “tumour growth inhibition” 44% (nude mouse, NCI-H2126 xenograft; intraperitoneal, 12.5 mg/kg daily).
Under “tumour growth inhibition”, `Cl.O=C(c1cc(Cc2n[nH]c(=O)c3ccccc23)ccc1F)N1CC(CNC2CC2)C1` is recorded as 131% (athymic nude mouse, sample A ovarian PDX; oral, 12.5 mg/kg once daily, 63 days).
For `C=CCn1c(=O)c2cnc(Nc3ccc(N4CCN(C)CC4)cc3)nc2n1-c1ccc2c(n1)[C@@](O)(CC)CC2`, “tumour growth inhibition” read 102% (OVCAR-3 xenograft, NOD/SCID mouse; 100 mg/kg once daily, :3).
Under “tumour growth inhibition”, `CCCCc1nc2cc(/C=C/C(=O)NO)ccc2n1CCN(CC)CC` is recorded as 25% (mouse, MOLM-13 subcutaneous xenograft; 75 mg/kg every other day, day 7).
`CNC(=O)c1ccc(N2C(=S)N(c3ccc(C#N)c(C(F)(F)F)c3)C(=O)C2(C)C)cc1F` — result for “tumour growth inhibition”: 54.7% (mouse CWR22Rv1 xenograft; oral, 25 mg/kg once daily, 16 days, 5 days per week).
`CC(=O)c1c(C)c2cnc(Nc3ccc(N4CCNCC4)cn3)nc2n(C2CCCC2)c1=O` — result for “tumour growth inhibition”: 74% (MCF7, mouse xenograft; oral, 50 mg/kg daily, 32 days, last treatment day).
For `Cc1ncsc1-c1ccc(CNC(=O)[C@@H]2C[C@@H](O)CN2C(=O)[C@@H](NC(=O)CCCCCCCCCC(=O)N2CCN(CC[C@H](NC(=O)C3(N)CCN(c4ncnc5[nH]ccc45)CC3)c3ccc(Cl)cc3)CC2)C(C)(C)C)cc1`, “tumour growth inhibition” read greater than 90% (nude mouse, PC-3 xenograft; intraperitoneal, 75 mg/kg once daily, 21 days; relative to: vehicle).
`C=CC(=O)Nc1cc(Nc2ncc(C(=O)OC(C)C)c(-c3cn(C)c4ccccc34)n2)c(OC)cc1N(C)CCN(C)C` — result for “tumour growth inhibition”: 165% (mouse NCI-H2073 xenograft; oral, 30 mg/kg once daily, day 14).
`CC#CC(=O)N1CCC[C@H]1c1nc(-c2ccc(C(=O)Nc3ccccn3)cc2)c2c(N)nccn12` — result for “tumour growth inhibition”: 91% (TMD8 xenograft, mouse; 30 mg/kg twice daily).
`C[C@]12CC[C@H](n3ccnc3)CC1=CC[C@@H]1[C@@H]2CC[C@]2(C)C(n3cnc4ccccc43)=CC[C@@H]12.Cl` — result for “tumour growth inhibition”: 74.2% (mouse CWR22Rv1 xenograft; oral, 5 mg/kg once daily, 16 days, 5 days per week).
`CC(C)c1ccccc1[C@@H]1CCCN1C1CC2(CCN(c3ccc(C(=O)NS(=O)(=O)c4ccc(NC[C@H]5CC[C@](C)(O)CC5)c([N+](=O)[O-])c4)c(Oc4cnc5[nH]ccc5c4)c3)CC2)C1` — result for “tumour growth inhibition”: 98% (mouse RS4;11 xenograft; oral, 5 mg/kg once daily, day 14).
Under “tumour growth inhibition”, `O=C1CC[C@H](N2Cc3cc(N4CCN(CC5CCN(c6ccc([C@@H]7c8ccc(O)cc8CC[C@@H]7c7ccccc7)cc6)CC5)CC4)ccc3C2=O)C(=O)N1` is recorded as no less than 85% (mouse xenograft models; oral, dose not given, monotherapy).
`CCCCC(=O)Nc1ccc(-c2ccc3ncn(CCC)c(=O)c3c2)cn1`: “tumour growth inhibition” greater than 60% (mouse HCC827 xenograft; oral, dose not given).
`COc1ccc(CN2C3CC2CN(c2ccc(-c4cc(OCC(C)(C)O)cn5ncc(C#N)c45)cn2)C3)cn1`: “tumour growth inhibition” “no effect” (xenograft; Ba/F3 KIF5B-RET G810C, SHO mouse CDX; oral, 25 mg/kg once daily).
Under “tumour growth inhibition”, `C=CC(=O)Nc1cc(Nc2nccc(Nc3cc(Cl)c(F)cc3C(C)(C)O)n2)c(OC)cc1N1CC[C@@H](N(C)C)C1` is recorded as 89.1% (NCI-H2073 EGFR SVD knock-in, BALB/c nude mouse, NCI-H2073 xenograft; 25 mg/kg twice daily, 21 days).

Excerpt of the above:
Under “tumour growth inhibition”, `O=C1CC[C@H](N2Cc3cc(N4CCN(CC5CCN(c6ccc([C@@H]7c8ccc(O)cc8CC[C@@H]7c7ccccc7)cc6)CC5)CC4)ccc3C2=O)C(=O)N1` is recorded as no less than 85% (mouse xenograft models; oral, dose not given, monotherapy).
